{"data": "Experimental data collected from several papers", "note": "“And” joins repeats or separate records; there may be more than shown. Numbers after ± are the reported error."}
{"Molecule": "CCC(=O)Nc1cc(Nc2cc(NC3CC3)n3ncc(C#N)c3n2)ccc1N1CCCC(NC)C1 (centres unmarked)", "tested on": "murine hepatitis virus", "assay": "viral replication, nanoluciferase reporter", "system": "DBT", "setting": "10 h", "endpoint": "IC50", "result": "0.251 µM"}
{"Molecule": "C/C=C1/CN2[C@H]3C[C@@H]1[C@@H](CO)[C@@H]2Cc1c3n(C)c2ccccc12", "tested on": "Leishmania mexicana", "assay": "parasite growth, flow cytometry", "setting": "promastigote", "endpoint": "IC50", "result": "138 µM"}
{"Molecule": "O=Cc1cn(Cc2cccc(Cl)c2)c2ccc([N+](=O)[O-])cc12", "tested on": "Trypanosoma congolense", "system": "trypomastigotes, IL3000", "endpoint": "IC50", "result": "> 79 µM"}
{"Molecule": "CC(C)c1cc2c(cc1O)[C@@]1(C)CCCC(C)(C)[C@@H]1CC2", "tested on": "Leishmania amazonensis", "assay": "parasite growth", "system": "mouse Peritoneal macrophage", "setting": "72 h, intracellular, amastigote", "endpoint": "IC50", "result": "4.4 mg/L"}
{"Molecule": "O=Cc1cn(Cc2ccc(F)cc2)c2ccc([N+](=O)[O-])cc12", "tested on": "Leishmania major", "assay": "parasite growth, resazurin", "system": "THP-1", "setting": "72 h, intracellular, amastigote", "endpoint": "IC50", "result": "12.9 µM"}
{"Molecule": "[Cl-].[Cl-].[Cl-].[Cl-].[O]=[V+2].[O]=[V+2].c1cc(CN2CCCNCCNCCCNCC2)ccc1CN1CCCNCCNCCCNCC1", "tested on": "HIV-2", "assay": "viral cytopathicity", "system": "MT4, ROD", "endpoint": "IC50", "result": "0.142 µM and 0.236 µM"}
{"Molecule": "O=C(Nc1ccc(Cl)cc1)N1CCCC1c1nc(-c2ccccc2)no1 (centres unmarked)", "tested on": "Ancylostoma ceylanicum", "system": "adults", "endpoint": "IC50", "result": "3 to 50 µM"}
{"Molecule": "O=C(O)C(Cl)Cl", "tested on": "Leishmania infantum", "assay": "infected macrophages", "system": "U-937 macrophages", "setting": "48 h", "endpoint": "IC50", "result": "2690 ± 1.58 µM"}
{"Molecule": "O=C1C(O)=C([C@H]2CC[C@H](c3ccc(Cl)cc3)CC2)C(=O)c2ccccc21", "tested on": "Toxoplasma gondii", "system": "tachyzoites", "endpoint": "IC50", "result": "0.032 ± 0.019 µM"}
{"Molecule": "CO[C@@H]1[C@H](OP(=O)(OC[C@H]2O[C@@H](n3cnc4c(N)ncnc43)C[C@@H]2O)SCOC(=O)OC(C)C)[C@@H](CO)O[C@H]1n1ccc(=O)[nH]c1=O (some centres unmarked)", "tested on": "hepatitis C virus", "system": "patient-derived genotype 1 or 3", "how to read": "reference: treatment-naive over IFN-relapsed", "endpoint": "IC50", "result": "no effect"}
{"Molecule": "O=c1[nH]cc(F)c(=O)[nH]1", "tested on": "human papillomavirus 16", "assay": "pseudovirus infection, inhibitor", "system": "293FT", "setting": "pseudovirus", "endpoint": "IC50", "result": "0.4 µM"}
{"Molecule": "CO/C(=C/C(N)=O)[C@H](C)[C@H](/C=C/c1csc(-c2csc([C@@H](C)/C=C/C=C/C(C)C)n2)n1)OC", "tested on": "Wickerhamomyces anomalus", "assay": "O2 uptake, inhibitor", "system": "mitochondria", "setting": "with: NADH 1 mM", "endpoint": "IC50", "result": "0.069 µM"}
{"Molecule": "CC(=O)Nc1ccc2ccn(-c3cc(Sc4ccccc4)n4ncc(C#N)c4n3)c2c1", "tested on": "murine hepatitis virus", "assay": "viral replication, nanoluciferase reporter", "system": "DBT", "setting": "10 h", "endpoint": "IC50", "result": "3.16 µM"}
{"Molecule": "COC(=O)C1OC1c1cc(OC)c(O)c(OC)c1 (centres unmarked)", "tested on": "human rhinovirus 2", "assay": "cytopathic effect", "system": "HeLa", "setting": "72 h", "endpoint": "IC50", "result": "inactive"}
{"Molecule": "C/C=C(C)/C=C/C=C/[C@H](OC)[C@@H](C)[C@@H](OC)[C@@H](C)CCc1oc2c(O)c(OC)cc(OC)c2c(=O)c1C", "tested on": "Plasmodium yoelii", "assay": "oxygen consumption", "system": "17XL", "endpoint": "IC50", "result": "0.094 µM"}
{"Molecule": "C/C(=C\\Cc1c(O)c(Cl)c(C)c(C=O)c1O)CC/C=C(\\C)[C@@H]1CC(=O)C(C)(C)O1", "tested on": "Wickerhamomyces anomalus", "assay": "O2 uptake, inhibitor", "system": "mitochondria", "setting": "with: malate and pyruvate 15 mM", "endpoint": "IC50", "result": "230 µM"}
{"Molecule": "Cc1cccc(CSc2ncnc3c2ncn3C2CC(CO)C(O)C2O)c1 (centres unmarked)", "tested on": "Toxoplasma gondii", "assay": "parasite growth, radiolabelled uracil incorporation", "system": "RH wild type, tissue culture", "endpoint": "IC50", "result": "23.8 ± 1.1 µM"}
{"Molecule": "Cc1ccc(Cn2cc(C=O)c3cc([N+](=O)[O-])ccc32)cc1", "tested on": "Trypanosoma congolense", "system": "trypomastigotes, IL3000", "endpoint": "IC50", "result": "> 85 µM"}
{"Molecule": "CCCC[C@H]1C(=O)O[C@H](C)[C@H](NC(=O)c2cccc(NC=O)c2O)C(=O)O[C@@H](C)[C@@H]1OC(=O)CC(C)C", "tested on": "Wickerhamomyces anomalus", "assay": "O2 uptake, inhibitor", "system": "mitochondria", "setting": "with: NADH 1 mM", "endpoint": "IC50", "result": "0.021 µM"}
{"Molecule": "CC(=O)Nc1ccc2ccn(-c3cc(Nc4ccccc4)n4ncc(C#N)c4n3)c2c1", "tested on": "murine hepatitis virus", "assay": "viral replication, nanoluciferase reporter", "system": "DBT", "setting": "10 h", "endpoint": "IC50", "result": "1.58 µM"}
{"Molecule": "ciclosporin", "tested on": "hepatitis B virus", "assay": "viral infection, ELISA, refers to: HBsAg secretion", "system": "HepaRG", "setting": "2 h pretreatment, 12 days", "endpoint": "IC50", "result": "1.17 ± 0.22 µM"}
{"Molecule": "CSCC[C@H](NC(=O)[C@H](CCCCN)NC(=O)[C@H](CCCCN)NC(=O)[C@@H](NC(=O)[C@H](CCCCN)NC(=O)[C@H](CC(=O)O)NC(=O)[C@H](Cc1c[nH]c2ccccc12)NC(=O)[C@H](CC(C)C)NC(=O)[C@H](CCC(=O)O)NC(=O)[C@H](CCCCN)NC(=O)[C@@H](NC(=O)[C@@H](N)Cc1ccccc1)C(C)C)C(C)C)C(=O)NCC(=O)N[C@@H](CO)C(=O)N[C@@H](C)C(=O)N[C@@H](C)C(=O)N[C@@H](Cc1c[nH]c2ccccc12)C(=O)N[C@@H](CO)C(=O)N[C@@H](C)C(=O)N[C@@H](C)C(=O)N[C@@H](CCCCN)C(=O)NCC(=O)N[C@@H](C)C(=O)N[C@@H](Cc1ccccc1)C(=O)N[C@@H](C)C(=O)O", "tested on": "Haemonchus contortus", "assay": "larval development", "system": "Kirby isolate", "setting": "6 days, 26 °C", "endpoint": "IC50", "result": "23 to 38 µM and 23.2 µM"}
{"Molecule": "O=C(O)c1ccc2c(c1)nc(Nc1cccc(Cl)c1)c1ccncc12", "tested on": "murine hepatitis virus", "assay": "viral replication, nanoluciferase reporter", "system": "DBT", "setting": "10 h", "endpoint": "IC50", "result": "0.631 µM"}
{"Molecule": "N=C(N)N[C@H]1Cc2ccccc2[C@@H]1NC(=O)C(=O)Nc1ccc(Cl)c(F)c1", "tested on": "HIV-1 YU2", "assay": "viral infection", "system": "Cf2Th-CD4/CCR5", "endpoint": "IC50", "result": "21.3 µM"}
{"Molecule": "CC(=O)Nc1ccc2ccn(-c3cc(NCc4cnn(C)c4)n4ncc(C#N)c4n3)c2c1", "tested on": "murine hepatitis virus", "assay": "viral replication, nanoluciferase reporter", "system": "DBT", "setting": "10 h", "endpoint": "IC50", "result": "3.16 µM"}
{"Molecule": "CN[C@@](C)(C[18F])C(=O)O", "tested on": "MDA-MB-468 tumour model", "system": "host not given, pancreas", "setting": "30 min, tumour-bearing", "endpoint": "tracer uptake", "result": "38 %ID/g"}
{"Molecule": "C[C@H]1N[C@@H](CCCCCCCCCCC2=C[C@@H](CCCCCCCCCC[C@H]3CC[C@@H](O)[C@@H](C)N3)[C@@H]3CCCN3C2)CC[C@H]1O", "tested on": "Leishmania donovani", "assay": "parasite growth, resazurin", "setting": "72 h, promastigote", "endpoint": "IC50", "result": "0.3 mg/L"}
{"Molecule": "O=Cc1cn(Cc2ccccc2)c2ccc([N+](=O)[O-])cc12", "tested on": "Trypanosoma brucei rhodesiense", "system": "trypomastigotes, IL1501", "endpoint": "IC50", "result": "> 89 µM"}
{"Molecule": "OCC1CC(n2cnc3c(SCc4ccc(OC(F)(F)F)cc4)ncnc32)C(O)C1O (centres unmarked)", "tested on": "Toxoplasma gondii", "assay": "parasite growth, radiolabelled uracil incorporation", "system": "RH wild type, tissue culture", "endpoint": "IC50", "result": "21 ± 1.7 µM"}
{"note": "For quick reference, copied from above:"}
{"Molecule": "C/C=C(C)/C=C/C=C/[C@H](OC)[C@@H](C)[C@@H](OC)[C@@H](C)CCc1oc2c(O)c(OC)cc(OC)c2c(=O)c1C", "tested on": "Plasmodium yoelii", "assay": "oxygen consumption", "system": "17XL", "endpoint": "IC50", "result": "0.094 µM"}
{"Molecule": "O=Cc1cn(Cc2ccc(F)cc2)c2ccc([N+](=O)[O-])cc12", "tested on": "Leishmania major", "assay": "parasite growth, resazurin", "system": "THP-1", "setting": "72 h, intracellular, amastigote", "endpoint": "IC50", "result": "12.9 µM"}
